# Published values gathered from unrelated publications.
# Each line is one published result; not all experiments were run side by side. “And” joins repeats or separate records; there may be more than shown. ± gives the spread as reported.
# UCHL1: Ubiquitin carboxyl-terminal hydrolase isozyme L1 (UCHL1, Homo sapiens, UniProt P09936)
# Sequence of UniProt P09936 (whole entry, looked up): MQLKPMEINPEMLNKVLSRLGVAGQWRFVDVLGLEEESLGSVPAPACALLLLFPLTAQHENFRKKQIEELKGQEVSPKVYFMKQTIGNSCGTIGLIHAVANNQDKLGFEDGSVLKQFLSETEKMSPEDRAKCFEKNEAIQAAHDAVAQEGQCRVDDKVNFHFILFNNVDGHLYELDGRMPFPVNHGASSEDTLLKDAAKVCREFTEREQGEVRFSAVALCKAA
SMILES,target or system,test,conditions,scale,measurement,value
Cc1cc(-c2ccccc2)n(-c2nc(-c3ccc(Cl)cc3)c3c(NC(=O)c4ccccc4)nnc-3[nH]2)n1,MDA-MB-468,NCI60 SRB,10 µM,,growth percent,72%
O=C1NC(c2ccccc2)(c2ccccc2)C(=O)N1Cc1cn(-c2cc3ccccc3oc2=O)nn1,MDA-MB-468,NCI60 single-dose screen,10 µM,,growth percentage,86.1%
COc1ccc(OC)c(-c2nc3ccc(-c4nc5ccc(N6CCN(C)CC6)cc5[nH]4)cc3[nH]2)c1,MDA-MB-468,SRB,"10 µM, 48 h",,growth percent,99.7%
COc1ccc2c(n1)CCN(C(=O)[C@H]1C[C@@H](CC(=O)O)C1)[C@H]2C(=O)Nc1cc(F)c2c(c1)CCC2(C)C,MDA-MB-468,,5 µM,,colony formation,no effect
CCn1cc(-c2cc(Cn3ccnc3)cc3c2CCN([C@H](c2cc(OC)ccn2)C2CC2)C3=O)c(C(F)(F)F)n1,MDA-MB-468,"cell growth, inhibitor",120 h,,EC50,9.09 µM
CCn1c(-c2nonc2N)nc2c(C#CC(C)(C)O)ncc(OC[C@H]3CCCNC3)c21,MDA-MB-468,flow cytometry PI,"EC60, 72 h",,G2/M phase cells,30%
CCS(=O)(=O)c1ccc(CC(=O)Nc2cc(Cl)c(-c3ccccc3OC(F)(F)F)c(Cl)c2)cc1,MDA-MB-468,"RNA-seq, measured: HMGCR, SQLE","concentration not given, 24 h",,cholesterol-biosynthesis gene expression,decreased
COc1cc(/C=C/C(=O)N2CCC=CC2=O)cc(OC)c1OC,MDA-MB-468,"quantitative RT-PCR, measured: CIAP","30 µM, 8 h",baseline: untreated,mRNA level,32.9 ± 0.6%
CCOC(=O)CSc1nc(-c2ccc(Cl)cc2)c2c(NC(=O)c3ccccc3)nnc-2[nH]1,MDA-MB-468,NCI60 SRB,10 µM,,growth percent,96.8%
Nc1ccn([C@@H]2O[C@H](CO)[C@@H](O)C2(F)F)c(=O)n1,MDA-MB-468,"cell proliferation, CCK-8",4 d,baseline: untreated,ED50,0.0103 ± 0.0068 µM
C#C[C@@]1(O)[C@@H](CO)O[C@@H](n2cc(Cl)c3c(N)ncnc32)[C@@H]1O,MDA-MB-468,SRB,NCI-60 screen,,TGI,0.751 µM and 0.451 µM
CCCCNC(=O)C(C#N)=Cc1c(Cl)cccc1Cl,UCHL1,"covalent, intact protein LC-MS",12.5 µM,,labelling,9.02%
CCOC(=O)c1c(C)nc2ccc(-c3ccc(OCc4ccccc4)c(F)c3)cc2c1O,MDA-MB-468,DCFDA flow cytometry,"concentration not given, 48 h",baseline: untreated,ROS content,30%
O=C(Nc1nnc2n3c(=S)[nH][nH]c3nc(-c3ccc(Cl)cc3)c1-2)c1ccccc1,MDA-MB-468,NCI60 SRB,10 µM,,growth percent,106%
Cn1cncc1C1=CN(c2ncnc3[nH]cnc23)CCS1,MDA-MB-468,,,,TGI,28.8 µM
O=C1NC(c2ccccc2)(c2ccccc2)C(=O)N1Cc1cn(-c2c3ccccc3nc3ccccc23)nn1,MDA-MB-468,NCI60 single-dose screen,10 µM,,growth percentage,38.2%
CCCCN1CCN(c2ccc3[nH]c(-c4ccc5[nH]c(-c6ccc(OCC)c(OCC)c6)nc5c4)nc3c2)CC1,MDA-MB-468,SRB,"10 µM, 48 h",,growth percent,-77.8%
CCOC(=O)c1c(C)nc2ccc(-c3cccc(F)c3)cc2c1O,MDA-MB-468,DCFDA flow cytometry,"concentration not given, 48 h",baseline: untreated,ROS content,30%
Cc1n[nH]c2nc(-c3ccc(Cl)cc3)c3c(NC(=O)c4ccccc4)nnc-3n12,MDA-MB-468,NCI60 SRB,10 µM,,growth percent,120%
CCCCN1CCN(c2ccc3[nH]c(-c4ccc5[nH]c(-c6cc(OC)c(OC)c(OC)c6)nc5c4)nc3c2)CC1,MDA-MB-468,SRB,"10 µM, 48 h",,growth percent,45.7%
Cc1cc(C)n(-c2nc(-c3ccc(Cl)cc3)c3c(NC(=O)c4ccccc4)nnc-3[nH]2)n1,MDA-MB-468,NCI60 SRB,10 µM,,growth percent,102%
C#C[C@@]1(O)[C@@H](CO)O[C@@H](n2cc(F)c3c(N)ncnc32)[C@@H]1O,MDA-MB-468,SRB,NCI-60 screen,,TGI,1.53 µM
O=C1NCCc2[nH]c(-c3ccncc3)cc21,MDA-MB-468,MTS,NCI60 panel,,IC50,1.77 µM
O=C(/C=C/C=C/C=C/C1CCCCC1)NC1=C[C@@](O)(/C=C/C=C/C=C/C(=O)NC2=C(O)CCC2=O)[C@@H]2O[C@@H]2C1=O,MDA-MB-468,"cell growth, CellTiter-Glo",78 h,,GI50,13.5 µM
CN1CCN(c2ccc3[nH]c(-c4ccc5[nH]c(-c6ccc(C(F)(F)F)cc6)nc5c4)nc3c2)CC1,MDA-MB-468,SRB,"10 µM, 48 h",,growth percent,50.6%
COc1cccc2c1C(=O)c1c(O)c3c(c(O)c1C2=O)C[C@@](O)(C(=O)CO)C[C@@H]3O[C@H]1C[C@H](N)[C@H](O)[C@H](C)O1,MDA-MB-468,WST-1,"concentration not given, 72 h, highest tested concentration",,maximal cytotoxicity,90.9%
Cn1cc(-n2cnc3c(NCc4nc5cc(Cl)c(Cl)cc5[nH]4)nc(N4CCOCC4)nc32)cn1,MDA-MB-468,"cell viability, CellCounting-Lite","2.743 nM, 37 °C",higher = more viable cells,luminescence signal,413000 a.u. and 410000 a.u. and 385000 a.u.
CCCN1CCN(c2ccc3nc(-c4ccc5nc(-c6cc(OC)ccc6OC)[nH]c5c4)[nH]c3c2)CC1,MDA-MB-468,SRB,"10 µM, 48 h",,growth percent,114%
CC(Cl)C(=O)NC1CCCN(S(=O)(=O)N2CCOCC2)C1 (centres unmarked),UCHL1,"covalent, intact protein LC-MS",12.5 µM,,labelling,22.3%
Cc1cc(=O)[nH]c(=O)n1Cc1cn(-c2c3ccccc3nc3ccccc23)nn1,MDA-MB-468,NCI60 single-dose screen,10 µM,,growth percentage,-66.7%
CCCCN1CCN(c2ccc3[nH]c(-c4ccc5[nH]c(-c6ccc(C(F)(F)F)cc6)nc5c4)nc3c2)CC1,MDA-MB-468,SRB,"10 µM, 48 h",,growth percent,-62.1%
COc1ccc(S(=O)(=O)ON=C2C=C(C)C(=O)C(C)=C2)cc1,MDA-MB-468,western blot,"concentration not given, 7 h",,histone H3 and H4 acetylation,decreased
Cc1cc(=O)[nH]c(=O)n1Cc1cn(-c2cc3ccccc3oc2=O)nn1,MDA-MB-468,NCI60 single-dose screen,10 µM,,growth percentage,111%
O=C(Nc1nnc2[nH]c(=S)[nH]c(-c3ccc(Cl)cc3)c1-2)c1ccccc1,MDA-MB-468,NCI60 SRB,10 µM,,growth percent,91.7%
NC1(c2ccc(-c3nc4ccn5c(=O)[nH]nc5c4cc3-c3ccccc3)cc2)CCC1,MDA-MB-468,flow cytometry PI,"EC60, 72 h",,sub-G0 cells,0.5%

# Some of these lines once more:
SMILES,target or system,test,conditions,scale,measurement,value
CCCCNC(=O)C(C#N)=Cc1c(Cl)cccc1Cl,UCHL1,"covalent, intact protein LC-MS",12.5 µM,,labelling,9.02%
CCOC(=O)CSc1nc(-c2ccc(Cl)cc2)c2c(NC(=O)c3ccccc3)nnc-2[nH]1,MDA-MB-468,NCI60 SRB,10 µM,,growth percent,96.8%
O=C1NC(c2ccccc2)(c2ccccc2)C(=O)N1Cc1cn(-c2c3ccccc3nc3ccccc23)nn1,MDA-MB-468,NCI60 single-dose screen,10 µM,,growth percentage,38.2%
